Experimental data pooled from the literature.
Compare with care: the assays were run in different laboratories. Several values in a cell are separate wells, animals, samples, runs or records. Numbers after ± are the reported error.

`COC1OC(C)C(OS(=O)(=O)O)C(OC2OC(C)C(OS(=O)(=O)O)C(OC3OC(C)C(OS(=O)(=O)O)C(OC4OC(C)C(OS(=O)(=O)O)C(OC5OC(C)C(OS(=O)(=O)O)C(OC6OC(C)C(OS(=O)(=O)O)C(OS(=O)(=O)O)C6O)C5O)C4O)C3O)C2O)C1O` (stereo not shown) has a prothrombin time of 15.1 ± 0.3 s (human plasma; 128 µg/mL).
`O=C(NS(=O)(=O)c1cccs1)c1cc2ccccc2n1Cc1ccc(Br)c2ccccc12`: “serum uric acid” 296 µM and 214 µM and 352 µM and 178 µM (mouse, acute hyperuricemia model; dose not given).
The tumour volume of `COc1ccc(NC(=O)c2ccc3[nH]c(-c4ccc(N(C)C)cc4)nc3c2)cn1` is reported as 1100 mm3 and 2150 mm3 and 2430 mm3 and 2140 mm3 and 2110 mm3 and 1820 mm3 (CT26, BALB/c nude mice, subcutaneous graft; dose not given, day 14).
`NC[C@@H](C(=O)Nc1ccc(-c2cn[nH]c2)cc1)c1ccccc1`: “pMLC-2 immunostaining score” 2 ± 0.8 (refers to: pMLC-2 Thr18/Ser19; ocular hypertensive rabbit, trabecular meshwork; topical, 0.1 %, 24 h; direction not given).
For `CC[C@H](C)[C@H](NC(=O)[C@@H](NC(=O)c1ccnc(Cl)c1Cl)C(C)(C)C)C(=O)N[C@H](C(=O)N[C@H](C(=O)N[C@H](C(=O)N[C@@H](CCC(N)=O)C(=O)N[C@@H](Cc1c[nH]cn1)C(=O)N[C@H](CC(C)C)C(=O)N[C@@H](CO)C(=O)NCCOCCOCC(=O)N[C@@H](CCCCNC(=O)CC[C@@H]1NC(=O)[C@@H](CCCNC(=N)N)NC(=O)[C@H](CCCNC(=N)N)NC(=O)[C@@H](CCCNC(=N)N)NC(=O)[C@H](CCCNC(=N)N)NC(=O)[C@H](Cc2ccc3ccccc3c2)NC(=O)[C@@H](Cc2ccccc2)NC1=O)C(N)=O)[C@@H](C)O)[C@@H](C)CC)C(C)(C)O`, “lung wet-to-dry weight ratio” read “decreased” (mouse, acute lung injury, LPS-induced; intranasal, 3 mg/kg, 6 h, added: LPS 4 mg/kg intranasal; relative to: vehicle).
With `CN1CCC[C@]1(C)/C=C/S(=O)(=O)NC(=O)Nc1c2c(cc3c1CCC3)CCC2` the IL-1β inhibition was 86.9% (human, whole blood ex vivo; 100 mg twice daily, day 14, 36 h, multiple ascending dose, added: LPS and ATP).
`COc1cnc2cccc(N3CCc4c(cc(Cn5ccnc5)cc4-c4cn(C)nc4C(F)(F)F)C3=O)c2c1` gave a tumour volume of 87 mm3 and 153 mm3 and 186 mm3 and 176 mm3 and 166 mm3 (BALB/c nude mice, MV4-11 xenograft; intraperitoneal, 100 mg/kg, day 17).
`COC1CN([C@H]2CC[C@H]([C@@]3(C)Oc4c(Cl)cc(C(=O)NCc5c(SC)cc(C)[nH]c5=O)c(C)c4O3)CC2)C1`: “log2 fold change” 1.22 (RNA-seq, refers to: TBC1D12; human, whole blood; dose not given, 24 h; relative to: pretreatment baseline).
`COC1OC(C)C(OC2OC(C)C(OS(=O)(=O)O)C(OC3OC(C)C(OC4OC(C)C(OS(=O)(=O)O)C(OC5OC(C)C(OS(=O)(=O)O)C(OS(=O)(=O)O)C5OS(=O)(=O)O)C4OS(=O)(=O)O)C(OS(=O)(=O)O)C3OS(=O)(=O)O)C2OS(=O)(=O)O)C(OS(=O)(=O)O)C1OS(=O)(=O)O` (stereo not shown): “prothrombin time prolongation” 1.05 fold (human plasma; 128 µg/mL; relative to: control).
`CCC(CC)n1c(Cc2cccs2)nc2cc(C(=O)N[C@@H](CC(=O)O)c3ccccc3)ccc21` — result for running distance: “increased” (exercise performance; mouse HFpEF model (high-fat diet plus L-NAME, 7 weeks); intraperitoneal, 20 mg/kg/day, 2 weeks).
`COC1OC(C)C(OC2OC(C)C(OS(=O)(=O)O)C(OC3OC(C)C(OC4OC(C)C(OS(=O)(=O)O)C(OC5OC(C)C(OC6OC(C)C(OS(=O)(=O)O)C(OC7OC(C)C(OC8OC(C)C(OS(=O)(=O)O)C(OC9OC(C)C(OS(=O)(=O)O)C(OS(=O)(=O)O)C9O)C8O)C(OS(=O)(=O)O)C7O)C6O)C(OS(=O)(=O)O)C5O)C4O)C(OS(=O)(=O)O)C3O)C2O)C(OS(=O)(=O)O)C1O` (stereo not shown) — result for “prothrombin time prolongation”: 1 fold (human plasma; 128 µg/mL; relative to: control).
Under “liver weight decrease”, `CC(C)(C)NCC(SS(=O)(=O)O)c1ccccc1` (stereo not shown) is recorded as 15% (Schistosoma mansoni-infected mice; 100 mg/kg single, day 42, perfusion day 56; relative to: vehicle).
The prothrombin time of `COC1OC(C)C(OC2OC(C)C(O)C(OS(=O)(=O)O)C2OS(=O)(=O)O)C(OS(=O)(=O)O)C1OS(=O)(=O)O` (stereo not shown) is reported as 15.5 ± 0.7 s (human plasma; 128 µg/mL).
`CCN(C(=O)c1cc(F)ccc1Oc1nncnc1N1CCC2(C1)CN([C@H](CCCN(C)CCOC)C(C)C)C2)C(C)C`: “increase in life span” 149% (mouse, sample A AML PDX model; 100 mg/kg).
For `CN1CCCNC(=O)c2cccc(c2)C(=O)NCCCN(C)CCCNc2cccc3c2C(=O)c2cccc(c2C3=O)NCCC1`, the tumour volume was 423 mm3 and 270 mm3 and 316 mm3 and 276 mm3 (KSN/Slc nude mice, SAS xenograft; dose not given, day 10, 240 h).
`CCCCCCCCCCCCCCCC(=O)OCC(CSC[C@H](N)C(=O)N[C@@H](CO)C(=O)N[C@@H](CCCCN)C(=O)N[C@@H](CCCCN)C(=O)N[C@@H](CCCCN)C(=O)N[C@@H](CCCCN)C(=O)NCCCCCC(=O)N[C@@H](CCCCN)C(=O)N[C@@H](CC(C)C)C(=O)N[C@H](C(=O)N[C@@H](Cc1ccccc1)C(=O)N[C@@H](Cc1ccccc1)C(=O)N[C@@H](Cc1ccc2ccccc2c1)C(=O)O)C(C)C)OC(=O)CCCCCCCCCCCCCCC` (stereo partly shown) — result for “amyloid plaque load”: 0.665 and 0.321 and 0.409 and 0.52 and 0.368 (thioflavin S staining; APP/PS1 transgenic mouse, hippocampus; intrahippocampal, 10 d, unit not given; relative to: injected over adjacent side).
With `CCOC(=O)CCCCC1NCCc2cc(O)c(O)cc21` (stereo not shown) the IC50 was 19.3 µM (ABTS scavenging; 10 min, dark).
`Nc1nc2cc(CC[C@H]3C[C@@H](n4ccc5c(N)ncnc54)[C@H](O)[C@@H]3O)ccc2cc1Br` — result for “tumour growth inhibition”: 67.4% (mouse, NCI-H1048 xenograft; oral, 10 mg/kg, day 28, 7 days on/7 off, 2 cycles).
For `COC1OC(C)C(OS(=O)(=O)O)C(OC2OC(C)C(OS(=O)(=O)O)C(OC3OC(C)C(OS(=O)(=O)O)C(OC4OC(C)C(OS(=O)(=O)O)C(OC5OC(C)C(OS(=O)(=O)O)C(OC6OC(C)C(OS(=O)(=O)O)C(OC7OC(C)C(OS(=O)(=O)O)C(OS(=O)(=O)O)C7OS(=O)(=O)O)C6OS(=O)(=O)O)C5OS(=O)(=O)O)C4OS(=O)(=O)O)C3OS(=O)(=O)O)C2OS(=O)(=O)O)C1OS(=O)(=O)O` (stereo not shown), the prothrombin time was 15.2 ± 0.2 s (human plasma; 128 µg/mL).
For `CC(=O)[O-].O.O.O.O.[Co+2].[O-]c1ccc(Br)cc1C=NCCN1CCOCC1`, the inhibition was 45.7% (hydroxyl radical scavenging; 200 µM).
With `Cc1cccc(C)c1CNc1cc(C(=O)N2CCC2)cn2c(C)c(C)nc12` the ED50 was 0.53 mg/kg (oesophageal lesions; rat reflux oesophagitis; oral, single dose).
Under “prothrombin time prolongation”, `COC1OC(C)C(OC2OC(C)C(OS(=O)(=O)O)C(OC3OC(C)C(OC4OC(C)C(OS(=O)(=O)O)C(OC5OC(C)C(OC6OC(C)C(OS(=O)(=O)O)C(OC7OC(C)C(OC8OC(C)C(OS(=O)(=O)O)C(OC9OC(C)C(OC%10OC(C)C(OS(=O)(=O)O)C(OC%11OC(C)C(OC%12OC(C)C(OS(=O)(=O)O)C(OS(=O)(=O)O)C%12O)C(OS(=O)(=O)O)C%11O)C%10O)C(OS(=O)(=O)O)C9O)C8O)C(OS(=O)(=O)O)C7O)C6O)C(OS(=O)(=O)O)C5O)C4O)C(OS(=O)(=O)O)C3O)C2O)C(OS(=O)(=O)O)C1O` (stereo not shown) is recorded as 0.97 fold (human plasma; 128 µg/mL; relative to: control).
`CCN1C/C(=C\c2cc(Cl)c(O)c(Cl)c2)C(=O)/C(=C/c2cc(Cl)c(O)c(Cl)c2)C1` has an IC50 of 46.6 mg/L (ABTS scavenging; 20 min).
`COC1OC(C)C(OC2OC(C)C(OS(=O)(=O)O)C(OC3OC(C)C(OC4OC(C)C(OS(=O)(=O)O)C(OC5OC(C)C(OC6OC(C)C(OS(=O)(=O)O)C(OC7OC(C)C(OS(=O)(=O)O)C(OS(=O)(=O)O)C7O)C6O)C(OS(=O)(=O)O)C5O)C4O)C(OS(=O)(=O)O)C3O)C2O)C(OS(=O)(=O)O)C1O` (stereo not shown) gave a prothrombin time of 15.2 ± 0.8 s (human plasma; 128 µg/mL).
For `CC(C)C[C@H](NC(=O)[C@H](CC(=O)O)NC(=O)CNC(=O)[C@@H](N)CCCNC(=N)N)C(=O)N[C@@H](C)C(=O)N[C@H](C(=O)N[C@@H](CC(C)C)C(=O)N[C@@H](CCCNC(=N)N)C(=O)N[C@@H](CCC(N)=O)C(=O)N[C@@H](CC(C)C)C(=O)N[C@@H](C)C(=O)N[C@@H](CCC(N)=O)C(=O)N[C@@H](CCC(=O)O)C(=O)N[C@@H](CC(=O)O)C(=O)NCC(=O)N[C@H](C(=O)N[C@H](C(=O)NCC(=O)N[C@H](C(=O)N[C@@H](CCCNC(=N)N)C(=O)NCCOCCOCCOCCOCCOCCOCCOCCOCCOCCOCCOCCOCCC(=O)N[C@@H](CS)C(N)=O)C(C)C)C(C)C)C(C)C)[C@@H](C)O`, “fluorescence signal ratio” read 2.17 and 8.98 and 0.87 (ex vivo NIR imaging; NOD/SCID mice, xenograft, H460 xenograft; intravenous, 30 µg, 24 h; relative to: lung).
`COC1OC(C)C(OC2OC(C)C(OS(=O)(=O)O)C(OC3OC(C)C(OC4OC(C)C(OS(=O)(=O)O)C(OC5OC(C)C(OS(=O)(=O)O)C(OS(=O)(=O)O)C5O)C4O)C(OS(=O)(=O)O)C3O)C2O)C(OS(=O)(=O)O)C1O` (stereo not shown) — result for “prothrombin time prolongation”: 1 fold (human plasma; 128 µg/mL; relative to: control).
`CCCCCCC(CSS(=O)(=O)O)NCC(C)C` (stereo not shown): “liver weight decrease” 3.54% (Swiss Webster mice, Schistosoma mansoni infected; 100 mg/kg; relative to: vehicle control).
For `C[n+]1cc(NC(=O)c2ccc3ccc4ccc(C(=O)Nc5cc6ccccc6[n+](C)c5)nc4c3n2)cc2ccccc21`, the delta Tm was 7.9 °C (MYC promoter parallel G-quadruplex DNA; UV melting; 3 µM, 1 mM potassium, added: DNA 3 µM).
